Published values gathered from unrelated publications.
Every numbered part comes from another study and shows a few of its results, in no order.

Study 1
Target: Probable WRKY transcription factor 33, C-terminal DNA-binding domain (WRKY33, Arabidopsis thaliana, UniProt Q8S8P5, residues 346-449)
Technique: DNA-protein interaction ELISA
Form: double-stranded DNA, one strand shown
Sample: in vitro, bacterial lysate
Tested at: not given
Notes: whole dsDNA probe, crude lysate protein
Reference: highest signal in screen
Reading: higher = stronger binding
Target sequence (chain): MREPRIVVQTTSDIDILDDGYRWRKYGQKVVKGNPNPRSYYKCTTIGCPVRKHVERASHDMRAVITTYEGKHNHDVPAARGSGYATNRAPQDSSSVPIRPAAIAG
Strand | relative absorbance
AAAAAAAAATGCTAGCGCGTACGTAAAAAA | 43.4 % of maximum
AAAAAAATCATCCTATTGTTGCTGTCAAAA | 34.1 % of maximum
AAAAAATGAGAGAATTTCCGGTTCAGAAAA | 25.1 % of maximum
AAAAAATATGTTTTCGCTTTATTCTTAAAA | 31 % of maximum
AAAAAATGTTTTTTAGAGGTGTGCAAAAAA | 33.6 % of maximum
AAAAAAGGGCCCACTATCGACGTCAAAA | 55 % of maximum
AAAAAAGTTATTATACCTGATCTCGCAAAA | 33.4 % of maximum
AAAAAACCTTACCTCATCCCTATCCCAAAA | 31.5 % of maximum

Study 2
Target: Centromere-binding protein 1, full length, N-terminal tag (CBF1, Saccharomyces cerevisiae, UniProt P17106, residues 1-351)
Sequence of UniProt P17106 (whole entry, looked up): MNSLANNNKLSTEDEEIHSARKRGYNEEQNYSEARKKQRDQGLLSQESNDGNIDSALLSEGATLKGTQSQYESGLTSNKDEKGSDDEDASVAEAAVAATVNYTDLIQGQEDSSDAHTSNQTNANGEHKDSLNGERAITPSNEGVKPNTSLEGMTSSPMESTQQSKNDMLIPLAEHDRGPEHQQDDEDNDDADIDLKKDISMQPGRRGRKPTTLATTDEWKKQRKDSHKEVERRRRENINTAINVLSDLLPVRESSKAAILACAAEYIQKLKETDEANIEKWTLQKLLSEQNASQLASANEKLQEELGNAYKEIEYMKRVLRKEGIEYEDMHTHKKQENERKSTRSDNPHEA
Technique: protein-binding microarray
Form: double-stranded DNA, one strand shown
Sample: in vitro
Tested at: 0.8 µM
Notes: whole 60-bp probe, no competitor
Reading: higher = stronger binding
Shared flanks, not repeated: … GTCTTGATTCGCTTGACGCTGCTG
Strand | fluorescence intensity
CTATGATTGAGACGTGTTGTGTTTAAACTATCCTTC | 507 a.u.
CTAAAAACATAATACATGGTGGTGGTGTCGTTGTTC | 542 a.u.
CTAGTTAAGCATAACAAGCACGTGCTGCAGATGTTC | 15400 a.u.
CTAATTGCATTTCGTTACATGATCAAACAATTCTTC | 588 a.u.
GAAAAAAGTGTCCATGTGATGGGAGGGATCATATAG | 1780 a.u.
CTAGCTGTAGCTATCGTCGTGATCGCTTTTACTTTC | 848 a.u.
GAAAGTCCATATTTCCACGTTCTCCTCTTCCTATAG | 525 a.u.
CTACTTATCAAGTGGCGTGCCACGGCATCTACCTTC | 752 a.u.

Single results of other studies
Substance | target | assay | test system | conditions | how to read | endpoint | value
COc1cc(C(=O)N2CCC(N3CCN(C)CC3)CC2)ccc1Nc1ncc2c(n1)N(C)c1ccccc1C(=O)N2C | mouse MER and TYRO3 | probe labelling, KiNativ ADP probe | mouse brain lysate | 1 µM | – | inhibition | -4.1%
PhoQ, residues 284 288 289 292 302 303 ALSMDL | PhoP, residues 12 14 15 18 19 LYHSL (Escherichia coli, UniProt P23836) | Sort-seq, item: YFP reporter | E. coli | PhoQ-PhoP variant library, together with: 10 µM Mg2+ | reference: high Mg2+ state, higher = stronger signaling | fold induction | 3.04
